Measurements collected from several papers.
Each line is one published result; not all experiments were run side by side. ± marks the error that the study gave.
UniProt P41149, sequence (whole entry, looked up): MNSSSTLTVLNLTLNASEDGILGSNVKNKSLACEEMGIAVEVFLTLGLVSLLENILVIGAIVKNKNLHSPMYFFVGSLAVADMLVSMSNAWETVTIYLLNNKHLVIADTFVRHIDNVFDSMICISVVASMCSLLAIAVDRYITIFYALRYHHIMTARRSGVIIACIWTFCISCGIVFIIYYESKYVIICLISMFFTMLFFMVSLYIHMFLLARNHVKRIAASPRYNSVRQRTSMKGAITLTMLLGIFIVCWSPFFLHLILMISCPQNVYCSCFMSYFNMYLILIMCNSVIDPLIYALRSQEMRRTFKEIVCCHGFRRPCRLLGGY

SMILES | tested on | assay | system | setting | scale | measurement | value
Cc1nc2cccc(OCC(C)(C)C(=O)NC(C)C)c2c(N)c1C(=O)O | – | – | Sprague-Dawley rat (both sexes), plasma | dietary, 30 mg/kg/day, day 7 | – | Tmax | 1.5 h
CCCCCCCCC/C=C/C(=O)CCc1ccc(O)c(OC)c1 | – | – | rat, small intestine site 4 contents | oral, dose not given, 4 h, no β-glucuronidase treatment | reference: ingested amount | recovery | 0.07%
C[C@]12CC[C@@H]3c4ccc(O)cc4CC[C@H]3[C@@H]1C[C@@H](O)[C@@H]2O | – | GC-MS | breast cancer women on NSAI, serum | vaginal, 0.03 mg daily, 6 h, day 28 | – | maximum serum concentration | 0.0395 ng/mL
CC[C@H](C)CCCCC(=O)N[C@@H](CCN)C(=O)N[C@H](C(=O)N[C@@H](CCN)C(=O)N[C@H]1CCNC(=O)[C@H]([C@@H](C)O)NC(=O)[C@H](CCN)NC(=O)[C@H](CCN)NC(=O)[C@H](CC(C)C)NC(=O)[C@@H](Cc2ccccc2)NC(=O)[C@H](CCN)NC1=O)[C@@H](C)O | – | UPLC-MS/MS | intensive care patients AKI, plasma | iv, dose not given, 6 h post-dose, steady state, polymyxin B dosing | – | mid-interval concentration | 3400 ± 1100 ng/mL
O=C(CCCCCCC(=O)Nc1ccccc1)NO | – | – | human patients, serum | oral, 600 mg twice daily | – | AUC(0-8 h) | 10.8 µM·h
CCN(c1cc(C#CCN2CCOCC2)cc(C(=O)NCc2c(C)cc(C)[nH]c2=O)c1C)[C@H]1CC[C@H](N(C)CCOC)CC1 | – | – | mouse liver microsomes | well-stirred model | – | scaled intrinsic clearance | < 10 mL/min/kg
COc1cccc2c1C(=O)c1c(O)c3c(c(O)c1C2=O)C[C@@](O)(C(=O)CO)C[C@@H]3O[C@H]1C[C@H](N)[C@H](O)[C@H](C)O1 | – | – | mouse, E0771 tumour-bearing, plasma | intravenous, 92 µmol/kg | – | Cmax | 7.09 µM
CSCC[C@H](NC(=O)[C@H](CO)NC(=O)[C@H](Cc1ccc(O)cc1)NC(=O)[C@H](CO)NC(C)=O)C(=O)N[C@@H](CCC(=O)O)C(=O)N[C@@H](Cc1c[nH]cn1)C(=O)N[C@@H](C)C(=O)N[C@@H](CCCNC(=N)N)C(=O)N[C@@H](Cc1c[nH]c2ccccc12)C(=O)NCC(=O)N[C@@H](CCCCN)C(=O)N1CCC[C@H]1C(=O)N[C@H](C(N)=O)C(C)C | Melanocortin receptor 5 (Mus musculus, UniProt P41149) | – | – | – | – | EC50 | 4.2 ± 2.1 µM
Cn1c(-c2ccc(C(N)=O)cc2F)nnc1C(C)(C)Oc1c(F)cc(Cl)cc1F | – | – | young Japanese subjects, plasma | oral, 20 mg single dose, day 1 | – | AUC(0-inf) median | 2180 ng·h/mL
OCCN(CCO)c1nc(N2CCCCC2)c2nc(N(CCO)CCO)nc(N3CCCCC3)c2n1 | – | shake-flask | polysorbate 80 | 37 °C | – | thermodynamic solubility | 8.31 ± 0.37 mg/g
COc1cc(F)c(F)c(Nc2ccc(I)cc2F)c1NS(=O)(=O)C1(C[C@H](O)CO)CC1 | – | – | human patients, plasma | oral, 30 mg twice daily, cycle 1 day 15, together with: copanlisib 0.6 mg/kg intravenous weekly | – | AUC(0-8 h) | 2560 ng·h/mL
O=C(O)[C@H](c1ccccc1Cl)N1CCc2sccc2C1 | – | HPLC-MS/MS | feline citrate plasma | 72 h, -80 °C, storage stability | – | deviation from nominal | 7%
CC(C)NCC(O)COc1cccc2ccccc12 (stereo not shown) | – | – | male Hartley guinea pig, anaesthetized | intravenous infusion, 1 mg/kg, 10 min infusion | reference: baseline | QTc change | 2.7 ± 1.3%
O=CCCCC=O | cysteine peptide Ac-RFAACAA-COOH | peptide depletion, DPRA RapidFire-MS/MS | – | 24 h, pH 7.5, room temperature, together with: 5.0 µM cysteine peptide | – | IC50 | 1.03 mM
O=C1N=C(N2CCOCC2)CN1c1ccc(Cl)cc1 | – | – | beagle dog, both sexes, plasma | oral, 30 mg/kg, tablets, fasted, day 5 | – | Vz/F | 0.789 L/kg
Nc1c2c(nc3ccccc13)CCCC2 | sandwich-cultured primary rat hepatocytes | substrate | – | – | – | Km | 31.5 ± 9.6 µM
CS(=O)(=O)OC[C@H](O)[C@@H]1CO1 | – | – | Wistar rat, male, plasma | intraperitoneal, 500 mg/kg of treosulfan, 4 h | – | concentration | 8 µM
CN[C@H](CC(C)C)C(=O)N[C@H]1C(=O)N[C@@H](CC(N)=O)C(=O)N[C@H]2C(=O)N[C@H]3C(=O)N[C@H](C(=O)N[C@H](C(=O)O)c4cc(O)cc(O)c4-c4cc3ccc4O)[C@H](O)c3ccc(c(Cl)c3)Oc3cc2cc(c3O[C@@H]2O[C@H](CO)[C@@H](O)[C@H](O)[C@H]2O[C@H]2C[C@](C)(N)[C@H](O)[C@H](C)O2)Oc2ccc(cc2Cl)[C@H]1O | – | – | pig, intervertebral disc | intravenous infusion, 1000 mg, infusion 100 min, together with: MIC 4 µg/mL | – | time above MIC | 156 min
CCOc1nc2cccc(C(=O)OC(C)OC(=O)OC3CCCCC3)c2n1Cc1ccc(-c2ccccc2-c2nnn[nH]2)cc1 (stereo not shown) | – | shake-flask | soybean oil | 37 °C | – | thermodynamic solubility | 0.31 ± 0.01 mg/g
COC(=O)c1ccccc1O | cysteine peptide Ac-RFAACAA-COOH | peptide depletion, DPRA RapidFire-MS/MS | – | 24 h, pH 7.5, room temperature, together with: 5.0 µM cysteine peptide | – | IC50 | inactive
CC(C)(C)NC(=O)[C@@H]1C[C@@H]2CCCC[C@@H]2CN1C[C@@H](O)[C@H](Cc1ccccc1)NC(=O)[C@H](CC(N)=O)NC(=O)c1ccc2ccccc2n1 | – | shake-flask | soybean oil | 37 °C | – | thermodynamic solubility | 2.34 ± 0.09 mg/g
COc1ccc(-c2coc3cc(O)ccc3c2=O)cc1 | – | mass spectrometry | Caco-2 | 40 µM, 6 h | – | Papp A→B | 23.8 ×10⁻⁶ cm/s

For quick reference, copied from above:
SMILES | tested on | assay | system | setting | scale | measurement | value
O=C(CCCCCCC(=O)Nc1ccccc1)NO | – | – | human patients, serum | oral, 600 mg twice daily | – | AUC(0-8 h) | 10.8 µM·h
CCN(c1cc(C#CCN2CCOCC2)cc(C(=O)NCc2c(C)cc(C)[nH]c2=O)c1C)[C@H]1CC[C@H](N(C)CCOC)CC1 | – | – | mouse liver microsomes | well-stirred model | – | scaled intrinsic clearance | < 10 mL/min/kg
